Earlier results as cited in several papers.
Compare with care: the assays were run in different laboratories.
Chain of UniProt Q9NQU5 (whole entry, looked up): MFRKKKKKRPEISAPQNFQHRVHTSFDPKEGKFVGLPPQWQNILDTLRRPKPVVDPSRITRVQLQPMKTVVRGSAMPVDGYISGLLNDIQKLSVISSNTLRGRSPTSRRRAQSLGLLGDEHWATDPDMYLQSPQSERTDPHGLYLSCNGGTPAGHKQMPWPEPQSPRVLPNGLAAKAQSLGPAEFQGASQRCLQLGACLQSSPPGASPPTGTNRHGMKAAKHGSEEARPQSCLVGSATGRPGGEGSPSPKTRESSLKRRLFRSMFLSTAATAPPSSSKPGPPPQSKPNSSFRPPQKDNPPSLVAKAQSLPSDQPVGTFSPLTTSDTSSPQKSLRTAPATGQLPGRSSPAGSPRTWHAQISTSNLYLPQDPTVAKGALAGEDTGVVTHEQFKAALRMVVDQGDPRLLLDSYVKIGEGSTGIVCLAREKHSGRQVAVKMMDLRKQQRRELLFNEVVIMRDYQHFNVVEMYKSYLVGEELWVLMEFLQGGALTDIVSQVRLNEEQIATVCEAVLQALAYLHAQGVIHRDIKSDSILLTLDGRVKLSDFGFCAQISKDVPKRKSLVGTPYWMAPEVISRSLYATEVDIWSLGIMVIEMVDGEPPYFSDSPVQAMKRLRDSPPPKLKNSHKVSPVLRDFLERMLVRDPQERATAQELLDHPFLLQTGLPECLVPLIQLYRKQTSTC

Compound | target or system | test | system | setting | scale | endpoint | result
CC(COc1ccc(Oc2ccccc2)cc1)Oc1ccccn1 (stereo not drawn) | CYP6P3 | inhibitor | – | – | – | IC50 | 15.8 µM
Nc1cc(C(F)(F)F)c(-c2nc(N3CCOCC3)nc(N3CCOCC3)n2)cn1 | Serine/threonine-protein kinase PAK 6 (PAK6, Homo sapiens, UniProt Q9NQU5) | enzyme activity | – | 10 µM | reference: untreated | remaining activity | 83%
N[C@@H]1c2cccnc2[C@H](OC(=O)N2CCC(n3c(=O)[nH]c4ncccc43)CC2)CC[C@H]1c1cccc(F)c1F | UGT1A1 (human) | enzyme activity, inhibitor | human liver microsomes | – | – | IC50 | > 50 µM
O=S(=O)(O)C(F)(F)F | CYP1A2 | inhibitor | – | Tox21 screening | – | IC50 | inactive
COc1cc2c(c(OC)c1OC)-c1c(cc(OC)c(OC)c1OC)C[C@H](C)[C@H](C)C2 | CYP3A, rat | enzyme activity, inhibitor | rat liver microsomes | – | – | IC50 | 6.6 µM
CCC(C)n1ncn(-c2ccc(N3CCN(c4ccc(OCC5COC(Cn6cncn6)(c6ccc(Cl)cc6Cl)O5)cc4)CC3)cc2)c1=O (stereo not drawn) | BCRP (ABCG2) | inhibitor | – | literature minimum | – | IC50 | 1.9 µM
Cc1[nH]c(C)c(-c2ccc(-c3cc(C(F)(F)F)cc(C(F)(F)F)c3)nc2)c(=O)c1Br | Plasmodium falciparum | whole cell extended time | 3D7 | 72 h | – | IC50 | 0.08 µM
FC1(F)C(F)(F)C(F)(F)C2(F)C(F)(F)C(F)(F)C(F)(F)C(F)(F)C2(F)C1(F)F (stereo not drawn) | CYP2C9 | inhibitor | – | Tox21 screening | – | IC50 | inactive
CCCS(=O)(=O)Nc1ccc(F)c(C(=O)c2c[nH]c3ncc(-c4ccc(Cl)cc4)cc23)c1F | ABCG2 | – | H460/MX20 | – | – | IC50 | > 20 µM
CC(O)c1cc(C(=O)N[C@@H](C)Cn2ccc(-c3ccc(C#N)c(Cl)c3)n2)[nH]n1 (stereo partly drawn) | BCRP (ABCG2) | inhibitor | – | literature minimum | – | IC50 | 1.3 µM
CO/N=C(\C(=O)N[C@@H]1C(=O)N2C(C(=O)O)=C(CSc3nc(=O)c(=O)[nH]n3C)CS[C@H]12)c1csc(N)n1 | MRP2 | transport activity, inhibitor | – | – | – | IC50 | 110 µM
CNC(C)C1CCC(N)C(OC2C(N)CC(N)C(OC3OCC(C)(O)C(NC)C3O)C2O)O1 (stereo not drawn) | Klebsiella pneumoniae | – | clinical isolate RKI-No_320/16 | – | – | MIC | ≤ 0.5 mg/L
FC(F)(F)C(F)(F)C(F)(F)C(F)(F)C(F)(F)C(F)(F)C(F)(F)C(F)(F)Br | CYP1A2 | inhibitor | – | Tox21 screening | – | IC50 | inactive
Cc1[nH]c(C)c(-c2ccc(-c3ccccc3Cl)nc2)c(=O)c1Br | Plasmodium falciparum | whole cell extended time | 3D7 | 72 h | – | IC50 | 0.17 µM
C[C@@H]1O[C@@H](Oc2c(-c3ccc(O)c(O)c3)oc3cc(O)cc(O)c3c2=O)[C@H](O)[C@H](O)[C@H]1O | CYP2C | – | – | – | – | IC50 | > 100 µM
C[C@H]1CN(C2COC2)CCN1c1ccc(Nc2cc(-c3ccnc(N4CCn5c(cc6c5CC(C)(C)C6)C4=O)c3CO)cn(C)c2=O)nc1 | human BCRP (ABCG2) | – | – | literature geometric mean | – | IC50 | 9.4 µM
CN(C)C/C=C/C(=O)Nc1cc2c(Nc3ccc(F)c(Cl)c3)ncnc2cc1O[C@H]1CCOC1 | ABCG2 | – | H460/MX20 | – | – | IC50 | > 1 µM
FC(F)OC(Cl)C(F)(F)F (stereo not drawn) | CYP2D6 | inhibitor | – | Tox21 screening | – | IC50 | inactive
C=C[C@@H]1C[C@]1(NC(=O)[C@@H]1C[C@@H]2CN1C(=O)[C@H](C(C)(C)C)NC(=O)O[C@@H]1C[C@H]1CCCCCc1nc3ccc(OC)cc3nc1O2)C(=O)NS(=O)(=O)C1CC1 | P-glycoprotein | transport, inhibitor | – | added: digoxin | – | IC50 | > 100 µM
Cc1cc(C)c(CNC(=O)c2cc(Cl)c3c(c2C)O[C@@](C)([C@H]2CC[C@H](N(C)C)CC2)O3)c(=O)[nH]1 | P-glycoprotein | digoxin transport, inhibitor | Caco-2 monolayer | added: [3H]digoxin | – | IC50 | 18.2 µM
Cc1ccc(C)c(OCCCC(C)(C)C(=O)O)c1 | human BCRP (ABCG2) | – | – | literature geometric mean | – | IC50 | 295 µM
CNCc1cn(S(=O)(=O)c2cccc(F)c2)c(-c2ccc(F)cc2F)c1OC | BCRP | efflux transport | – | – | – | IC50 | > 100 µM
CC1(C)S[C@@H]2[C@H](NC(=O)[C@H](N)c3ccccc3)C(=O)N2[C@H]1C(=O)O | Klebsiella pneumoniae | – | clinical isolate RKI-No_138/16 | – | – | MIC | > 16 mg/L
COC[C@H]1C[C@@H](c2ncc(-c3ccc4c(c3)COc3cc5c(ccc6nc([C@@H]7CC[C@H](C)N7C(=O)[C@@H](NC(=O)OC)C(C)C)[nH]c65)cc3-4)[nH]2)N(C(=O)[C@H](NC(=O)OC)c2ccccc2)C1 | OATP1B3 (SLCO1B3) | inhibitor | – | literature value used in model | – | IC50 | 0.235 µM
COC(=O)N1CCN(Cc2cccc(NC(=O)Nc3ccc(C)nc3)c2F)CC1 | BCRP | inhibitor | – | – | – | IC50 | 2.9 µM
COc1cc(Nc2ncc(F)c(Nc3ccc4c(n3)NC(=O)C(C)(C)O4)n2)cc(OC)c1OC | BCRP (ABCG2) | inhibitor | – | literature minimum | – | IC50 | 0.031 µM
C[C@H]1COCCN1c1nc(-c2cnc(N)cc2C(F)F)nc(N2CCOCC2)n1 | 786-O | – | – | – | – | GI50 | 703 nM

Some of these lines once more:
Compound | target or system | test | system | setting | scale | endpoint | result
C=C[C@@H]1C[C@]1(NC(=O)[C@@H]1C[C@@H]2CN1C(=O)[C@H](C(C)(C)C)NC(=O)O[C@@H]1C[C@H]1CCCCCc1nc3ccc(OC)cc3nc1O2)C(=O)NS(=O)(=O)C1CC1 | P-glycoprotein | transport, inhibitor | – | added: digoxin | – | IC50 | > 100 µM
C[C@@H]1O[C@@H](Oc2c(-c3ccc(O)c(O)c3)oc3cc(O)cc(O)c3c2=O)[C@H](O)[C@H](O)[C@H]1O | CYP2C | – | – | – | – | IC50 | > 100 µM
COC[C@H]1C[C@@H](c2ncc(-c3ccc4c(c3)COc3cc5c(ccc6nc([C@@H]7CC[C@H](C)N7C(=O)[C@@H](NC(=O)OC)C(C)C)[nH]c65)cc3-4)[nH]2)N(C(=O)[C@H](NC(=O)OC)c2ccccc2)C1 | OATP1B3 (SLCO1B3) | inhibitor | – | literature value used in model | – | IC50 | 0.235 µM
CC(O)c1cc(C(=O)N[C@@H](C)Cn2ccc(-c3ccc(C#N)c(Cl)c3)n2)[nH]n1 (stereo partly drawn) | BCRP (ABCG2) | inhibitor | – | literature minimum | – | IC50 | 1.3 µM
